# Experimental data gathered from unrelated publications.
# Every numbered part comes from another study and shows a few of its results, in no order. Substitutions count along the parent as printed.

# Set 1 — target: CCNE1, cyclin fold, Cln2 fusion (human); technique: yeast growth competition, sequencing; matrix: yeast; notes: weak parent motif; baseline: not given; direction: higher = stronger binding
# Starting sequence: ITGB3BP docking peptide (human); MPVKRSLKLDGLL
Substitution,normalised enrichment score
MPVKRSLKADGLL [L9A],1.12
MPVARSLKLDGLL [K4A],0.714
MPVKASAKLDGLL [R5A L7A],0.0205
MPVKRSLKFDGLL [L9F],1.26
MPVKASLKLDGLL [R5A],0.0937
MPVKRSLKLDGAL [L12A],0.244
MPVKKSLKFDGLL [R5K L9F],0.493
APVKRSLKLDGLL [M1A],0.463
MPVKRSAKLDGLL [L7A],1.05

# Set 2 — technique: DHFR PCA, deep sequencing; matrix: yeast; with: (+)-ABA 0 µM; baseline: wild-type fitted maximum; direction: higher = stronger binding
# Target: ABI1, truncated, D143A, DHFR fusion (Arabidopsis thaliana)
# Notes: methotrexate growth selection, single substitutions
# Starting sequence: PYL1, truncated, DHFR fusion (Arabidopsis thaliana); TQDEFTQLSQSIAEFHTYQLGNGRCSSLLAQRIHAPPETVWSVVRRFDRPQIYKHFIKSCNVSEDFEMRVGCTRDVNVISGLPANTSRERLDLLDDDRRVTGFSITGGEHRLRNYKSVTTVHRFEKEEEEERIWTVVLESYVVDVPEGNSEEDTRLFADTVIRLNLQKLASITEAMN
Substitution,relative binding score [%]
V43Q,-5.9
I33W,-2.47
C72M,21.2
V40H,-6.37
G102E,-0.119
T86V,41.4
E130A,34.5
V145W,-6.67
T39R,14.2

# Set 3 — technique: protein binding microarray; molecule type: double-stranded DNA, one strand shown; matrix: in vitro; tested at: not given; baseline: not given; direction: higher = stronger binding
# Target: Histone acetyltransferase KAT6A, both winged helices, GST fusion (KAT6A, Homo sapiens, UniProt Q92794, residues 1-181)
# Notes: 8-mer, flanks averaged, mean of 2 arrays, mostly near background
# Construct (chain): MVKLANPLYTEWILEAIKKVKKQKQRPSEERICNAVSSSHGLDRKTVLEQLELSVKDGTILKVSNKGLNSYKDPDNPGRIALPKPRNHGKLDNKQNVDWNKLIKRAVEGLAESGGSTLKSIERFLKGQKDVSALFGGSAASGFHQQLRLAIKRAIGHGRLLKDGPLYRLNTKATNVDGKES
Sequence,E-score
AGGTACCT,-0.285
CTCGTTTA,-0.0908
CGAATACA,-0.0191
ACCCTTAG,-0.271
CTGTGTGC,-0.0433
AAATTAAC,-0.0963
TAGTCTGA,-0.106
AGGTTCGG,-0.00199
GCCCGCCC,0.347

# Other studies, line by line
Substance,target,assay,system,conditions,how to read,measurement,value
"PhoQ, residues 284 288 289 292 302 303 AQGLTV","PhoP, residues 12 14 15 18 19 LHHSG (Escherichia coli, UniProt P23836)","Sort-seq, item: YFP reporter",E. coli,"PhoQ-PhoP variant library, with: 10 µM Mg2+","baseline: high Mg2+ state, higher = stronger signaling",fold induction,5.91

# For quick reference, copied from above (set 2):
Substitution,relative binding score [%]
I33W,-2.47
V40H,-6.37
E130A,34.5
T39R,14.2
